Measured values from different studies.
Lines come from different studies, so protocols differ.

The CLint of CN(c1ccc(F)cc1)c1c(-c2cc(Cl)ccn2)nc2ccccn12 is reported as over 300 µL/min/10⁶ cells (rat hepatocytes).
For O=[N+]([O-])c1ccc(Nc2ncnc3ccc(-c4cccc(N5CCOCC5)c4)cc23)cc1C(F)(F)F, the CLint was 26 µL/min/mg (human liver microsomes).
With CCN(CC)Cc1ccc2cc(COC(=O)Nc3ccc(C(=O)NO)cc3)ccc2c1 the CLint was 14.9 µL/min/mg (rat liver microsomes 0.5 mg/mL; pH 7.4, 37 °C, together with: NADPH).
O=C1CC[C@H](N2Cc3cc(N4CCN(CC5CCN(c6ccc([C@@H]7c8ccc(O)cc8CC[C@@H]7c7ccccc7)cc6)CC5)CC4)ccc3C2=O)C(=O)N1 has a CLint of 29 µL/min/mg (SD rat liver microsomes; 1 µM, pH 7.4, 0.5 mg/mL microsomal protein).
The CLint of CS(=O)(=O)c1cnc(NS(=O)(=O)c2ccc(N)cc2)nc1 is reported as about 1 µL/min/mg (human liver microsomes; 2 µM).
Cn1cc(Nc2ncnc3ccc(-c4cccc(N5CCOCC5)c4)cc23)cn1 has a CLint of 46 µL/min/mg (human liver microsomes).
Cc1nc2ccc(OCc3ccc(C(F)(F)F)cc3)cc2[nH]1 gave a CLint of 3.1 µL/min/mg (human liver S9; 1 µM, pH 7.4).
The CLint of C[C@@H]1COCCN1c1cccc(-c2ccc3ncnc(Nc4ncco4)c3c2)c1 is reported as 120 µL/min/mg (human liver microsomes).
The CLint of O=C1CC2(CCCC2)CC(=O)N1CCCCN1CCN(c2ncccn2)CC1 is reported as 0.24 µL/min/mg (EpiIntestinal microtissues; 10 µM, pH 6.5).
With CCOC(=O)C1=C(CN2CCOCC2)NC(c2nccs2)=NC1c1ccc(F)cc1Br (stereo not shown) the CLint was 69.1 mL/min/kg (human liver microsomes; 1 µM, pH 7.4).
Nc1nccc(-n2cc(C(=O)N3CCNCC3)c3ccc(C#CC4(O)CCCCC4)cc32)n1 has a CLint of 20.4 µL/min/mg (human liver microsomes; 1 µM, pH 7.4).
With CCCC1O[C@@H]2C[C@H]3[C@@H]4CCC5=CC(=O)C=C[C@]5(C)[C@H]4[C@@H](O)C[C@]3(C)[C@]2(C(=O)CO)O1 (stereo partly shown) the CLint was 1.14 µL/min/mg (EpiIntestinal microtissues; 10 µM, pH 6.5).
The CLint of c1cc(-c2ccc3ncnc(Nc4ncco4)c3c2)nc(N2CCOCC2)c1 is reported as 44 µL/min/mg (human liver microsomes).
O=C(Nc1ccc(CN2CCOCC2)c(C(F)(F)F)c1)c1ccc(C#Cc2cccc3cnccc23)cn1 gave a CLint of 0.104 mL/min/mg protein (CD-1 mouse liver microsomes; 1 µM, 0.5 mg/mL microsomal protein).
For CCOC(=O)C1=C(CN2CCC[C@@H]2C(=O)Nc2ccc(B(O)O)cc2)NC(c2nccs2)=N[C@H]1c1ccc(F)cc1Br, the CLint was 7.4 mL/min/kg (human liver microsomes; 1 µM, pH 7.4).
CN1CCN(c2cccc(-c3ccc4ncnc(Nc5ccc([N+](=O)[O-])c(C(F)(F)F)c5)c4c3)c2)CC1 has a CLint of under 3 µL/min/mg (human liver microsomes).
With Nc1nccc(-n2cc(C(=O)NC3CCNCC3)c3ccc(C#CC4(O)CCCCC4)cc32)n1 the CLint was under 9.6 µL/min/mg (human liver microsomes; 1 µM, pH 7.4).
Clc1cccc(Nc2ncnc3ccc(-c4cccc(N5CCOCC5)c4)cc23)c1 has a CLint of 170 µL/min/mg (human liver microsomes).
With CN1CCN(C(=O)c2ccc3cc(CCNc4ncnc5ccc(C#N)cc45)ccc3c2)CC1 the CLint was 19.8 µL/min/10⁶ cells (human hepatocytes, female; 2 µM, 37 °C).
